Published values gathered from unrelated publications.
Lines come from different studies, so protocols differ.
Target: Activin receptor type-2B (ACVR2B, Homo sapiens, UniProt Q13705)

| Structure (SMILES) | test | conditions | scale | endpoint | value |
| --- | --- | --- | --- | --- | --- |
| CNC(=O)C1CCN(c2cc(C)c(F)cc2NC(=O)c2ccc(-c3cc(O)ccc3C)c(C)c2)CC1 | binding, competition with immobilised ligand | 1 µM |  | remaining binding | 93% |
| Cc1ccc(-c2c(/C=C(\C#N)C(=O)NC(C)C)n(CCCO)c3ncnc(N)c23)cc1 | cell-free assay, competition with immobilised ligand | 1 µM |  | remaining binding | 77% |
| C=CC(=O)N1Cc2nc(-c3cc(-c4cc(Cl)cnc4Cl)c(F)cc3F)n(-c3ccncn3)c2C1 | cell-free assay | 1 µM |  | inhibition | -3% |
| COc1cc(Nc2nccc(-c3cnn4nc(OC)ccc34)n2)cc(C(F)(F)F)c1 | binding, competition with immobilised ligand | 1 µM |  | remaining binding | 95% |
| CC(C)=CC1OC(C)(C)C2C=C3C(=O)C(Cl)=CC(O)C3C3C(O)C4OC4C(=O)C132 (centres unmarked) | cell-free assay, competition with immobilised ligand | 10 µM |  | remaining binding | 99% |
| COc1cc(Nc2nc(C)cc(-c3cnn4nc(OC)ccc34)n2)cc(C(F)(F)F)c1 | inhibitor | 1 µM | reference: control | remaining activity | 92% |
| COc1c(Cl)cccc1Nc1c(-c2ccncc2C#C[C@@]2(C)CCCN2C(=O)/C=C/CN(C)C)[nH]c2c1C(=O)NCC2 | binding, competition with immobilised ligand | 3 µM |  | remaining binding | 98% |
| C=CC(=O)N1CCCC(n2c(=O)c3ncccc3n(Cc3ccc(Oc4ccccc4)cc3)c2=O)C1 (centres unmarked) | cell-free assay, competition with immobilised ligand | 1 µM |  | remaining binding | 75% |
| CN1CCN(Cc2ccc(-c3ccc(CO[C@H]4CCC[C@@H]4NC(=O)c4cc(-c5cnn(C)c5)cnc4N)cc3)cc2)CC1 | enzyme activity, inhibitor | 0.1 µM |  | inhibition | 6% |
| Cc1cnc2nc1Nc1cccc(c1)COC/C=C/COCc1cc(ccc1OCCN1CCOCC1)N2 |  | concentration not given |  | percent of control | 92% |
| CNC1C[S+]2CC[S+]3CC[S+](C1)[Ru-4]321([N]=C=S)[n]2c3ccc(OC)cc3c3c4c(c5cc(F)c[n+]1c5c32)C(=O)NC4=O (centres unmarked) | KinomeScan | 0.1 µM | reference: untreated | remaining binding | 100% |
| CCN1CCN(Cc2ccc(C(=O)Nc3ccc(C)c(NCc4cnc5[nH]ccc5c4OC)c3)cc2C(F)(F)F)CC1 | binding, competition with immobilised ligand | 1 µM |  | remaining binding | 86% |
| Nc1ncc2c(n1)-c1c([nH]c3ccc(C4=CCOCC4)cc13)CCC2 | binding, competition with immobilised ligand | 1 µM |  | remaining binding | 94% |
| C=CC(=O)N1CCc2ccc(-n3c(=O)ccc4cnc5ccc(-c6cnn(C)c6)cc5c43)cc21 | KINOMEscan | 1 µM | reference: DMSO control | remaining binding | 70% |

Excerpt of the above:
| Structure (SMILES) | test | conditions | scale | endpoint | value |
| --- | --- | --- | --- | --- | --- |
| CNC1C[S+]2CC[S+]3CC[S+](C1)[Ru-4]321([N]=C=S)[n]2c3ccc(OC)cc3c3c4c(c5cc(F)c[n+]1c5c32)C(=O)NC4=O (centres unmarked) | KinomeScan | 0.1 µM | reference: untreated | remaining binding | 100% |
| Cc1ccc(-c2c(/C=C(\C#N)C(=O)NC(C)C)n(CCCO)c3ncnc(N)c23)cc1 | cell-free assay, competition with immobilised ligand | 1 µM |  | remaining binding | 77% |
